Experimental data gathered from unrelated publications.
Lines come from different studies, so protocols differ.
Target: Serine/threonine-protein kinase PLK1 (PLK1, Homo sapiens, UniProt P53350)

| SMILES | test | conditions | how to read | endpoint | value |
| --- | --- | --- | --- | --- | --- |
| NC(=O)[C@@H](O)C[C@H]1CCc2sc3ncnc(O[C@H]4CC[C@H](N5CCOCC5)CC4)c3c21 | enzyme activity, inhibitor | 10 µM |  | inhibition | 0% |
| Nc1ncc2c(n1)-c1c([nH]c3ccc(C4=CCOCC4)cc13)CCC2 | binding, competition with immobilised ligand | 1 µM |  | remaining binding | 100% |
| Cc1cnc2nc1Nc1cccc(c1)COC/C=C/COCc1cc(ccc1OCCN1CCOCC1)N2 | binding | 0.1 µM |  | remaining binding | 100% |
| CNC1C[S+]2CC[S+]3CC[S+](C1)[Ru-4]321([N]=C=S)[n]2c3ccc(OC)cc3c3c4c(c5cc(F)c[n+]1c5c32)C(=O)NC4=O (stereo not shown) | KinomeScan | 0.1 µM | reference: untreated | remaining binding | 96% |
| CN1CCN(Cc2ccc(NC(=O)c3cccc(C#Cc4cnc(N)c5ncccc45)c3)cc2C(F)(F)F)CC1 | cell-free assay, competition with immobilised ligand | 0.5 µM |  | remaining binding | 83% |
| CC[C@H](C)[C@H](NC(C)=O)C(=O)N[C@@H](CC(=O)O)C(=O)N1CCC[C@H]1C(=O)N1CCC[C@H]1C(=O)N[C@@H](CC(C)C)C(=O)N[C@@H](Cc1c[nH]cn1)C(=O)N[C@@H](CO)C(=O)N[C@H](C(=O)N[C@@H](C)C(N)=O)[C@@H](C)OP(=O)(O)O | polo-box domain binding, isothermal titration calorimetry | concentration not given, 25 °C |  | binding stoichiometry | 0.96 |
| Cc1cccc(-c2ccc3nc(NC(=O)C4CCCO4)nn3c2)c1 (stereo not shown) | enzyme activity, Dundee kinase panel | 10 µM |  | remaining activity | 90% |
| C=CC(=O)N1Cc2nc(-c3cc(-c4cc(Cl)cnc4Cl)c(F)cc3F)n(-c3ccncn3)c2C1 | cell-free assay, inhibitor | 1 µM |  | inhibition | 8.3% |
| Cc1nc2c(F)cc(-c3nc(Nc4ccc(CNC(=O)CCCCCCC(=O)NO)cc4)ncc3F)cc2n1C(C)C | enzyme activity, inhibitor | 1 µM |  | inhibition | 70% |
| Nc1nc(Nc2ccccc2)sc1C(=O)c1ccccc1 | enzyme activity, inhibitor | 10 µM |  | remaining activity | 65% |
| C=CC(=O)Nc1cccc(-c2cnc3[nH]cc(C(=O)NC(C)(C)C)c3n2)c1 | enzyme activity, inhibitor | 0.1 µM |  | inhibition | 4% |
| CNS(=O)(=O)Nc1nccc(Cc2c(C)c3ccc(Oc4ncccc4F)cc3oc2=O)c1F | binding, competition with immobilised ligand | 10 µM |  | remaining binding | 100% |
| COc1ccc(NC(=O)Nc2ccc3c(c2)C(=O)N(C(C)CO)CC(C)C(CN(C)Cc2ccc4c(c2)OCO4)O3)cc1 (stereo not shown) | kinase activity, KinaseProfiler | 0.03 µM, species human | reference: control | remaining activity | 82% |

For quick reference, copied from above:
| SMILES | test | conditions | how to read | endpoint | value |
| --- | --- | --- | --- | --- | --- |
| C=CC(=O)N1Cc2nc(-c3cc(-c4cc(Cl)cnc4Cl)c(F)cc3F)n(-c3ccncn3)c2C1 | cell-free assay, inhibitor | 1 µM |  | inhibition | 8.3% |
| C=CC(=O)Nc1cccc(-c2cnc3[nH]cc(C(=O)NC(C)(C)C)c3n2)c1 | enzyme activity, inhibitor | 0.1 µM |  | inhibition | 4% |
